Results pooled from the literature.
Numbered parts are unrelated; each lists some results of a single study. Changes are numbered by the printed parent chain.

Series 1
Target: CCNA1, cyclin fold, Cln2 fusion (human)
Method: yeast growth competition, sequencing
Matrix: yeast
Setting: weak parent motif
Baseline: not given
Direction: higher = stronger binding
Parent: SCAPER docking peptide (human); SNARRSLNFGGST
`N2Y` — result for “normalised enrichment score”: 0.346.
For `G11F`, “normalised enrichment score” read 0.765.
Under “normalised enrichment score”, `F9S` is recorded as 0.195.
For `N8F`, “normalised enrichment score” read 0.629.
For `S1V`, “normalised enrichment score” read 0.85.

Series 2
Target: Interferon regulatory factor 7, full length, phosphomimetic (IRF7, Homo sapiens, UniProt Q92985, residues 1-503, S101K/S471D/S472D/S475D/S476D/S477D/S483D/S484D/S487D)
Method: protein-binding microarray
Form: double-stranded DNA, one strand shown
Matrix: in vitro
Tested at: 250 nM
Setting: 60-bp whole probe
Together with: salmon DNA 0.4 mg/ml
Baseline: random background probes
Direction: higher = stronger binding
Shared flanks, not repeated: GCCTAGCAC … GTCTTGATTCGCTTGACGCTGCTG
Residues (chain): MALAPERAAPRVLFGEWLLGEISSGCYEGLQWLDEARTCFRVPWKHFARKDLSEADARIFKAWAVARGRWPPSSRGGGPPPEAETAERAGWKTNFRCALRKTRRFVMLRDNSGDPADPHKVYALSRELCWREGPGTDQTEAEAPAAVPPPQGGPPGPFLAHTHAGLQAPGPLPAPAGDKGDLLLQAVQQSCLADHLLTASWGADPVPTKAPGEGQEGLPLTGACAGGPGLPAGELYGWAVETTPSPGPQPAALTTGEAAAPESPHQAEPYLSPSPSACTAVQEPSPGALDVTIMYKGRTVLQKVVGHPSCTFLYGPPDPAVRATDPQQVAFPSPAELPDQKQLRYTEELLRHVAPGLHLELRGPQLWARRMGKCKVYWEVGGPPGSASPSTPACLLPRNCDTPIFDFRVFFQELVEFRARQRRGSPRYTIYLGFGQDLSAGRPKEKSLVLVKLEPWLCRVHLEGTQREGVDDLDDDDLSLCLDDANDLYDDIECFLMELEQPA
The log fluorescence of `GACGGTCTCCTTATGCTGACGTGCTAG` is reported as 0.014 z-score.
`GACGGACGGGGGACTGGGGACGTGCTA` gave a log fluorescence of 1.21 z-score.
The log fluorescence of `CAGAATTTACTTTCTACGTCGTGCTAG` is reported as 0.364 z-score.
`TTAGATTTCGGTTCCGATTAGTGCTAG` has a log fluorescence of 4.16 z-score.
For `GGACTCACCTAGTTTCATTCCGTGCTA`, the log fluorescence was 3.12 z-score.
For `TTAGGTTTCCGACTGGGTTAGTGCTAG`, the log fluorescence was 0.881 z-score.
`GACTGTCTCGGTCTCGGGACGTGCTAG` has a log fluorescence of 0.658 z-score.
With `GACGATTTCGGGACTCGAGACGTGCTA` the log fluorescence was 0.701 z-score.
`GACGGTTTAGGTTTCGGGACGTGCTAG` gave a log fluorescence of 3.52 z-score.
For `TTAGGATTGGGGACTGGGTTAGTGCTA`, the log fluorescence was -0.296 z-score.
`TTAGATTTCGGGAATCGATTAGTGCTA` has a log fluorescence of 1.78 z-score.
`GAGGAACTGAGTTTCGAGACGTGCTAG` has a log fluorescence of 4.25 z-score.

Series 3
Target: BATF3, bZIP domain (human)
Method: DHFR protein complementation
Matrix: yeast
Setting: single substitutions, most at no-binding floor
Baseline: wild-type JUN-FOS pair
Direction: higher = stronger binding
Parent: JUN, bZIP domain (human); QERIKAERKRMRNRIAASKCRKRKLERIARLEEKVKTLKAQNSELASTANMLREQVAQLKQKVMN; partner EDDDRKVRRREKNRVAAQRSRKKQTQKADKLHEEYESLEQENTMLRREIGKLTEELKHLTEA
`A49L` gave a binding fitness of 0.192 natural log.
`K34D` gave a binding fitness of 0.233 natural log.
For `E44Q`, the binding fitness was 0.172 natural log.
`S47W` has a binding fitness of 0.19 natural log.
`L38E` gave a binding fitness of 0.0433 natural log.
`L38I` has a binding fitness of 0.127 natural log.
The binding fitness of `A46D` is reported as -0.0762 natural log.

Single results of other studies
`PhoQ, residues 284 288 289 292 302 303 TVTVVA` has a fold induction of 2.54 (PhoP, residues 12 14 15 18 19 NQGLL (Escherichia coli, UniProt P23836); Sort-seq, item: YFP reporter; E. coli; PhoQ-PhoP variant library, together with: 10 µM Mg2+; baseline: high Mg2+ state, higher = stronger signaling).

For quick reference, copied from above (series 2):
For `TTAGGTTTCCGACTGGGTTAGTGCTAG`, the log fluorescence was 0.881 z-score.
The log fluorescence of `GACGGTCTCCTTATGCTGACGTGCTAG` is reported as 0.014 z-score.
The log fluorescence of `CAGAATTTACTTTCTACGTCGTGCTAG` is reported as 0.364 z-score.
